Measurements from different studies.
Every numbered part comes from another study and shows a few of its results, in no order. Substitutions count along the parent as printed.

Set 1 — technique: RNA Bind-n-Seq; form: RNA; matrix: in vitro; tested at: not given; relative to: input RNA pool; reading: higher = stronger binding
Target: RING finger protein unkempt homolog, zinc fingers 1-6, GST-SBP tag (UNK, Homo sapiens, UniProt Q9C0B0, residues 30-357)
Notes: RNA with constant flanks, human and mouse sites, ends assumed
Constant ends, left off below: GGGAGUUCUACAGUCCGACGAUC … CAACAGAGGAUUGAGCAUCA
Residues (chain): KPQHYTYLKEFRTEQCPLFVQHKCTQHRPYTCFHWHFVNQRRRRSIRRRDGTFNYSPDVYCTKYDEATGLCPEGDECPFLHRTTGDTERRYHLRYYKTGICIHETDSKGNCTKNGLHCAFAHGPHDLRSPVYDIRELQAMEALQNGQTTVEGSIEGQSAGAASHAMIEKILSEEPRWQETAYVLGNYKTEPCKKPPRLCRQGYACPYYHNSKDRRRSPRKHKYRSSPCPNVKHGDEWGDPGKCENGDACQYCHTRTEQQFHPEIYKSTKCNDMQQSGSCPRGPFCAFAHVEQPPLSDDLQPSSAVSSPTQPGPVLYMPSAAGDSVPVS
Strand	bound/input enrichment
AUUCAGUUGGAAGAUGGUUCUGCGGCCUAUGUUCAACAUGUACCCAUACCUAAAAGUAAUAGUUAUGACCAGAGUGCAUUACAGGCGGUUCAGCUGGAAGAUGGUACCACAGCUUAUAUC	0.135 ratio
GUUUAUGUUCCAGAUGAAAAUAAUACUAUUUUGGGGAGAAAUACAAAUAAACAAGUUUUUGAAGGCUUGACAACUGGACUUCUCAAAGUCAGUGCUGUGGUUUUGGGCUGCCUGAUUGCC	0.348 ratio
ACCAUUGUUGACACCGUGGGAUUUGGAGACCAGAUAAAUAAAGAUGACAGCUAUAAGCCGAUAGUAGAAUAUAUUGAUGCCCAGUUCGAGGCCUACCUGCAAGAGGAAUUGAAGAUUAAA	7.66 ratio
GGAUCUGAGAACAAGCUCAUUUCUGUGAGAUGGAAGAGCAUGCCAUAGGCCAAGAGUUGAGUAAAGGUUUACUCUGAAGAUUAAUUUUAACAUUUUUGUUAAUAUUGCAAUUUUAACAAA	1.67 ratio
CACUAUCAGUAUGAUCGAUCAGGGCCAUAUGGUUAUAGAGGGAUUGGGGGAAUGAAGCCUUCCAUGUCUGACACAAAUUUAGCAGAAGCUGGACAUUUUUUCUAUAAAAGUAAGAAUGCU	1.39 ratio
AGGCCUUACGAGUGUGUGGAGUGUGGGAAGACAUUCAAGACCAAGUCGUCCCUUAUCUGUCAUCGUAGAUGUCACACGGGAGAGAAACCUUAUGAGUGCAGUGCAUGUGGUAAAGCCUUU	0.341 ratio
UCUCUGUUCAGCUGUUAAUGCUGGGAUCCAUAUUUAGUUUUAUAAGCUUUUCCCUGUUUUUAGUUUUGUUUUGGGUUUUUUGGCUCAUGAAUUUUAUUUCUGUUUGUCGAUAAGAAAUGU	198 ratio
GUUGCCAGACCGGCCCAUAAAAAGAAAGCUCGAAUGGCGCGGACGCGCUCCGAUUUCUUGACUAGAGGUACUUUUGCCGAAGGGGAGGGGGAUACAGAGGAAGAUGAUUACGAUGACAUU	0.228 ratio
AUCGAACCUGUACAACCUCCCCCACCUUCUGUACCAGUGGUAGCUGAUCAAAGAACCAUAACAUUUACAUCAUCAAAAAAUGAAGAACUACAAGGAAAUGAUUCCAAAAUUACUCCUUCC	0.203 ratio
UUUGCAGAAUGGAGGCAGCUCUGGUUGACCGGUUCCUUGGUUGAGCUCUGACUCAAGACCUAGGUCCCAAGAGCAGGCCUUCCUCACCUAAGAGAGCAACACCUAUGGGUGACCCAUUCU	0.055 ratio
GUCCAGGCUUUGAAACAGGAAAUAGAGGUUCUAAAAGAAGAAAUAGGAAAUGCCCAGCUUGAAAAGGCUCACCAGCUGUCUGUCACUUCUCAAGUCCAGGAGCUGCAGAACUUAUUAAGA	1.16 ratio

Set 2 — technique: protein binding microarray; form: double-stranded DNA, one strand shown; matrix: in vitro; tested at: not given; relative to: not given; reading: higher = stronger binding
Target: Histone acetyltransferase KAT6A, winged helix 2, GST fusion (KAT6A, Homo sapiens, UniProt Q92794, residues 85-181)
Notes: 8-mer, flanks averaged, mean of 2 arrays, mostly near background
Residues (chain): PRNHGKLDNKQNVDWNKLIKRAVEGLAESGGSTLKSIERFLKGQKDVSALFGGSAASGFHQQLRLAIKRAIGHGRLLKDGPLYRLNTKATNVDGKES
Strand	E-score
CCTAAACA	-0.13
AATGTGAG	-0.0872
AGAACTTG	0.0503
CACGGGCG	-0.0366
AGCAATCC	0.0105
AAGACAGC	0.025
CAATGACC	-0.0293
CACGGATC	0.0644
ACCGTGAC	-0.161
GACATATA	-0.0761
CCTGGGCA	0.0668
ATAAGGCA	0.00498
AAGATCAG	0.123
ACCCCTGA	-0.00517
CTCAACGC	-0.0957
AGGGGTTG	-0.164
CTGCAAAC	0.0597
GCGGGTAC	0.19
GTAATGTA	-0.301
AAGAGAAC	-0.134
GCTAATGA	-0.159
ACTCGGAA	0.165
ATCTGTAG	-0.138

Set 3 — technique: DHFR PCA, deep sequencing; matrix: yeast; with: (+)-ABA 710 µM; relative to: wild-type fitted maximum; reading: higher = stronger binding
Target: ABI1, truncated, D143A, DHFR fusion (Arabidopsis thaliana)
Notes: methotrexate growth selection, single substitutions
Starting sequence: PYL1, truncated, DHFR fusion (Arabidopsis thaliana); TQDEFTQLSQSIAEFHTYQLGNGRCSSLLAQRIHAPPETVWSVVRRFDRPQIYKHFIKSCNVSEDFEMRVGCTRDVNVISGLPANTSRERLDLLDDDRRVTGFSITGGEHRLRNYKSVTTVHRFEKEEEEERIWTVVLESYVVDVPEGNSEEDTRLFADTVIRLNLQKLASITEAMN
Substitution	relative binding score
S104T	109%
R90Y	75.8%
M176L	100%
Q31S	72.8%
Q51N	85.5%
V100W	52.4%
E109K	100%
R113I	101%
S104W	15.9%
R74I	-20.9%
T86F	95.6%
T135V	84.8%
T106F	111%
N77V	103%
L29Q	94.2%
F66E	98.1%
D92Y	81.9%
R113L	102%
V118M	107%
T106P	49.6%
E89V	-6.5%
P146C	83.9%
R111G	68.4%
T39M	97.1%
R163D	73.5%

Set 4 — target: UBE2M UBC core domain (UniProt P61081); technique: yeast two-hybrid; matrix: yeast; notes: mostly zero background; relative to: not given; reading: higher = stronger interaction
B1: TRIM8 RING domain (UniProt Q9BZR9); chain WKNCFEEELICPICLHVFVEPVQLPCKHNFCRGCIGEAWAKDSGLVRCPECNQAYNQKPGLE
B2: TRIM63 RING domain (UniProt Q969Q1); chain PMENLEKQLICPICLEMFTKPVVILPCQHNLCRKCANDIFQAANPYWTSRGSSVSMSGGRFRCPTCRHEVIMDRHGV
B3: TRIM72 RING domain (UniProt Q6ZMU5); chain APGLLHQELSCPLCLQLFDAPVTAECGHSFCRACLGRVAGEPAADGTVLCPCCQAPTRPQALST
B4: TRIM69 RING domain (UniProt Q86WT6); chain VIQDITMELHCPLCNDWFRDPLMLSCGHNFCEACIQDFWRLQAKETFCPECKMLCQYNNCTF
B5: RC3H2 RING domain (UniProt Q9HBD1); chain QAAQWTEFLSCPICYNEFDENVHKPISLGCSHTVCKTCLNKLHRKACPFDQTAINTDIDVL
B6: RNF170 RING domain (UniProt Q96K19); chain TRQQFYTDMYCPICLHQASFPVETNCGHLFCGACIIAYWRYGSWLGAISCPICRQTVTLLLTVF
B7: RNF25 RING domain (UniProt Q96BH1); chain LTDNNIPHGQCVICLYGFQEKEAFTKTPCYHYFHCHCLARYIQHMEQELKAQGQEQEQERQHATTKQKAVGVQCPVCREPLVYDLASL
B8: ZNF598 RING domain (UniProt Q86UK7); chain AAAPERGGGSCVLCCGDLEATALGRCDHPVCYRCSTKMRVLCEQRYCAVCREELRQVVFGK
Target sequence (chain): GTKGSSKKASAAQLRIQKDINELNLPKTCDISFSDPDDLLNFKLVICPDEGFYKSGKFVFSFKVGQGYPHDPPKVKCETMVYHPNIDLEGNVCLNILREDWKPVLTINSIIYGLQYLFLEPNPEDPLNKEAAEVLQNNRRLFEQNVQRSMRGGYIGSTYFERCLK
Molecule	lacZ reporter activity
B1 (TRIM8 RING domain)	0
B2 (TRIM63 RING domain)	0
B3 (TRIM72 RING domain)	0
QLQDIKEQTMCPVCLDRLKNMIFLCGHGTCQLCGDRMSECPICRKAIERRILLY (MIB1 RING domain (UniProt Q86YT6))	3080
YWAMDSTFELCKICAESNKDVKIEPCGHLLCSCCLAAWQHSDSQTCPFCRCEIKGWEAVS (CBLC RING domain (UniProt Q9ULV8))	0
B4 (TRIM69 RING domain)	0
QLRRLQEERTCKVCMDKEVSIVFIPCGHLVVCKDCAPSLRKCPICRSTIKGTVRTF (BIRC3 RING domain (UniProt Q13489))	0
FASPPDSNFVCSVCHGVLKRPARLPCSHIFCKKCILRWLARQKTCPCCRKEVKRKKVVH (RNF151 RING domain (UniProt Q2KHN1))	0
B5 (RC3H2 RING domain)	0
B6 (RNF170 RING domain)	0
VTLSLTLPITCHICLGKVRQPVICINNHVFCSICIDLWLKNNSQCPACRVPITPENPCK (OBI1 RING domain (UniProt Q5W0B1))	0
B7 (RNF25 RING domain)	0
B8 (ZNF598 RING domain)	0
RLTMMWEEVTCPICLDPFVEPVSIECGHSFCQECISQVGKGGGSVCPVCRQRFLLKNLRP (TRIM21 RING domain (UniProt P19474))	0
EDEVSDNSAECVVCLSDVRDTLILPCRHLCLCNTCADTLRYQANNCPICRLPFRALLQIR (RNF157 RING domain (UniProt Q96PX1))	0
DAIPSLSECQCGICMEILVEPVTLPCNHTLCKPCFQSTVEKASLCCPFCRRRVSSWTRYH (RNF168 RING domain (UniProt Q8IYW5))	0
FPEHFVKSISCQICEHILADPVETNCKHVFCRVCILRCLKVMGSYCPSCRYPCFPTDLES (RAG1 RING domain (UniProt P15918))	0
PEELQAMDNVCIICREEMVTGAKRLPCNHIFHTSCLRSWFQRQQTCPTCRMDVLRASLPA (SYVN1 RING domain (UniProt Q86TM6))	0

Repeated from above (set 4):
Molecule	lacZ reporter activity
B3 (TRIM72 RING domain)	0
QLQDIKEQTMCPVCLDRLKNMIFLCGHGTCQLCGDRMSECPICRKAIERRILLY (MIB1 RING domain (UniProt Q86YT6))	3080
YWAMDSTFELCKICAESNKDVKIEPCGHLLCSCCLAAWQHSDSQTCPFCRCEIKGWEAVS (CBLC RING domain (UniProt Q9ULV8))	0
B4 (TRIM69 RING domain)	0
QLRRLQEERTCKVCMDKEVSIVFIPCGHLVVCKDCAPSLRKCPICRSTIKGTVRTF (BIRC3 RING domain (UniProt Q13489))	0
FASPPDSNFVCSVCHGVLKRPARLPCSHIFCKKCILRWLARQKTCPCCRKEVKRKKVVH (RNF151 RING domain (UniProt Q2KHN1))	0
B5 (RC3H2 RING domain)	0
B6 (RNF170 RING domain)	0
VTLSLTLPITCHICLGKVRQPVICINNHVFCSICIDLWLKNNSQCPACRVPITPENPCK (OBI1 RING domain (UniProt Q5W0B1))	0
